Experimental data pooled from the literature.
Every numbered part comes from another study and shows a few of its results, in no order. Positions count from the first letter of the parent shown.

Series 1
Target: CCNE1, cyclin fold, Cln2 fusion (human)
Technique: yeast growth competition, sequencing
Matrix: yeast
Setting: weak parent motif
Relative to: not given
Reading: higher = stronger binding
Starting sequence: DNAH7 docking peptide (human); HELFQRLDFDNDG
For `L3A`, “normalised enrichment score” read 0.0896.
For `D12A`, “normalised enrichment score” read -0.0542.
`L7A`: “normalised enrichment score” -0.265.
`F9A`: “normalised enrichment score” 0.104.
For `D10A`, “normalised enrichment score” read 0.18.
`H1A` — result for “normalised enrichment score”: 0.37.
`Q5A`: “normalised enrichment score” 0.237.

Series 2
Target: Centromere-binding protein 1, full length, N-terminal tag (CBF1, Saccharomyces cerevisiae, UniProt P17106, residues 1-351)
UniProt P17106, sequence (whole entry, looked up): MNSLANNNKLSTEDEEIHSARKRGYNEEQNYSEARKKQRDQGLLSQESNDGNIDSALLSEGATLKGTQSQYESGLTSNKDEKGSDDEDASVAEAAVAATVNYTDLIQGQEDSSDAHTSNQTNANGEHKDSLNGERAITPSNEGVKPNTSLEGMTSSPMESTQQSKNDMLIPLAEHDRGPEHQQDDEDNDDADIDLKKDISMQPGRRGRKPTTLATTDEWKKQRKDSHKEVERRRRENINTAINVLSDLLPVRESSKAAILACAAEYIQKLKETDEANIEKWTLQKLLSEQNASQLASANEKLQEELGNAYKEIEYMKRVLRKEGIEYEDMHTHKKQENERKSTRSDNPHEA
Technique: protein-binding microarray
Molecule type: double-stranded DNA, one strand shown
Matrix: in vitro
Concentration: 0.8 µM
Setting: whole 60-bp probe, no competitor
Reading: higher = stronger binding
Constant ends, left off below: … GTCTTGATTCGCTTGACGCTGCTG
`TGTACGAAGCTATAAGCACAGGTTATAGTAGTTAGG` has a fluorescence intensity of 514 a.u.
`GAAAGGTTAAAAGCACGTGGCACGAGAAACGCGTAG` has a fluorescence intensity of 6750 a.u.
With `CTAGTTGTTATTATTATCGTGATTATTATTTAGTTC` the fluorescence intensity was 698 a.u.
The fluorescence intensity of `GAATCTCTAGTGTCCCACATGAATTGTATTAACTAG` is reported as 512 a.u.
`CTATCTATGATACATGACGTGAAATGTGCACGGTTC` has a fluorescence intensity of 641 a.u.
With `TGTACGAAGCTATAACCGATCACTATAGTAGTTAGG` the fluorescence intensity was 514 a.u.
With `CTAACCAGATAAAAGAGCGTGCTCCGAAGTTAGTTC` the fluorescence intensity was 551 a.u.
`GAATGCGCGTGGAAAAGCGTGTCTTTTTCTCATTAG` gave a fluorescence intensity of 532 a.u.
The fluorescence intensity of `GAATGATACTTTGGTGACGTATTCTTTTCTCACTAG` is reported as 483 a.u.
With `GAATATATGTGTCTGTACATGATGTACTCGGTCTAG` the fluorescence intensity was 533 a.u.
`GAAACAGGTAATCATCATGAGCTCCCCATTCATTAG` gave a fluorescence intensity of 497 a.u.
For `GAAGAGACGCCCGTTGATGTTACTAGTGATGAATAG`, the fluorescence intensity was 526 a.u.
`GAAATGAATCGCACGCACGCGTAAACATTTATCTAG` gave a fluorescence intensity of 650 a.u.
`CTAGCCGGTTTCTTCCACGCGTCAATCCGTTTGTTC` has a fluorescence intensity of 534 a.u.
For `GAATAGAAAAGTTATCACCAGAGTAAAAAGGAGTAG`, the fluorescence intensity was 575 a.u.
`GAACTGAGGAGGGACCTCCACGTGCCAAACGACTAG` has a fluorescence intensity of 3050 a.u.
With `CTAAAAAAGAACAAATACATCACGAAGACAGAATTC` the fluorescence intensity was 622 a.u.
`GAAAGTTCTGTATGGTGCGTCACCTTCTTTTTTTAG` gave a fluorescence intensity of 501 a.u.
The fluorescence intensity of `CTAAACAATATTCATTACATCAGAATGCGAAAATTC` is reported as 516 a.u.
`GAAAAAGCTCTCCCCCTCGTGTAATTATGCACGTAG` gave a fluorescence intensity of 557 a.u.
`GAACTTCTACTACATCAGCTTTTAGATTTTTCATAG` gave a fluorescence intensity of 553 a.u.

Series 3
Target: Prothrombin, mature alpha-thrombin (F2, Homo sapiens, UniProt P00734)
Technique: aptamer microarray, sandwich
Molecule type: DNA with 2'F-ANA
Matrix: in vitro
Concentration: 200 nM
Setting: whole 15-mer aptamer, many near background
Added: Cy3 exosite-II aptamer, 400 nM
Reading: higher = stronger binding
Sequence: GGTTGGTGTGGTTGG
For `2'F-ANA at 1 4 6 9 13 15`, “mean fluorescence intensity” read 79.1 a.u.
`2'F-ANA at 1 3 4 5 6 9 11 12 14`: “mean fluorescence intensity” 47 a.u.
For `2'F-ANA at 2 3 4 5 7 8 9 11 12 14 15`, “mean fluorescence intensity” read 55.4 a.u.
`2'F-ANA at 2 3 8 10 11 12 13 14 15` — result for “mean fluorescence intensity”: 262 a.u.
`2'F-ANA at 4 5 7 8 9 12 14` — result for “mean fluorescence intensity”: 51.6 a.u.
`2'F-ANA at 1 3 4 6 7 9 11 15`: “mean fluorescence intensity” 178 a.u.
`2'F-ANA at 1 2 3 4 5 6 7 8 11 12 13 15`: “mean fluorescence intensity” 83.1 a.u.
Under “mean fluorescence intensity”, `2'F-ANA at 1 3 6 10 14 15` is recorded as 60.7 a.u.
Under “mean fluorescence intensity”, `2'F-ANA at 1 3 4 5 6 7 9 11 12 13 14 15` is recorded as 50.9 a.u.
For `2'F-ANA at 1 2 3 6 7 9 11 12 14 15`, “mean fluorescence intensity” read 72.8 a.u.
For `2'F-ANA at 2 3 4 6 8 10 12 15`, “mean fluorescence intensity” read 246 a.u.
For `2'F-ANA at 1 2 3 5 7 10 12 13 15`, “mean fluorescence intensity” read 50.2 a.u.
`2'F-ANA at 1 3 4 8 10 11 13 14 15` — result for “mean fluorescence intensity”: 66 a.u.
For `2'F-ANA at 2 3 4 6 9 10 11 12 13 14`, “mean fluorescence intensity” read 131 a.u.
Under “mean fluorescence intensity”, `2'F-ANA at 1 5 8 10 15` is recorded as 48.3 a.u.
`2'F-ANA at 1 2 3 4 6 14`: “mean fluorescence intensity” 60.8 a.u.
Under “mean fluorescence intensity”, `2'F-ANA at 1 3 4 6 12 14 15` is recorded as 98.3 a.u.
Under “mean fluorescence intensity”, `2'F-ANA at 1 2 4 6 7 9 11 13 14` is recorded as 50.3 a.u.
`2'F-ANA at 1 2 3 4 5 7 10 12` — result for “mean fluorescence intensity”: 47.6 a.u.
Under “mean fluorescence intensity”, `2'F-ANA at 4 5 6 9 10 11 12 14` is recorded as 47.3 a.u.
For `2'F-ANA at 2 5 6 9 12 13 14 15`, “mean fluorescence intensity” read 48.7 a.u.
`2'F-ANA at 1 4 6 7 8 9 13 15`: “mean fluorescence intensity” 82.4 a.u.
`2'F-ANA at 1 2 4 8 10 14 15` — result for “mean fluorescence intensity”: 44.9 a.u.
`2'F-ANA at 2 3 4 5 8 9 10 12 13 15` — result for “mean fluorescence intensity”: 49.6 a.u.
`2'F-ANA at 2 5 7 8 9 10 11 14 15`: “mean fluorescence intensity” 47.7 a.u.

Series 4
Target: RNA binding protein fox-1 homolog 2, RRM domain, GST-SBP tag (RBFOX2, Homo sapiens, UniProt O43251-10, residues 100-194)
Technique: RNA Bind-n-Seq
Molecule type: RNA
Matrix: in vitro
Concentration: 365 nM
Setting: natural RNA segment, single round, ends assumed
Relative to: no-protein control
Reading: higher = stronger binding
Constant ends, left off below: GGGAGUUCUACAGUCCGACGAUC … UGGAAUUCUCGGGUGCCAA
Target sequence (chain): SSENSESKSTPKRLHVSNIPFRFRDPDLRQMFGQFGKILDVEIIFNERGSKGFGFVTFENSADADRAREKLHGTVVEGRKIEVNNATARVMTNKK
For `GGUGAUGGGCUUUGUGCCCACUCCAGAGAUAUUGUGGGAGACAAAUUCUUUUAACAGCCUGUCCUCCCGGCAUCAGGAGUCAUUGAACAAUCAUGGAUUGUUGUGUUUGG`, “RBNS enrichment (R)” read 0.616.
For `CUCCCUGCCCGGGAAGAGGACAGAUAACUGAUUUCCGUUCUUUUGACUGUGUUUUAAAAUUCUCUUUCUAAACACAGAGUGUUGGGCCUGGUUUGUUUCUGACAAAGUUA`, “RBNS enrichment (R)” read 0.256.
For `GUCCCUGCGGCUGUUCCCCUCCUCUGCUCUCUCCCUGGAGAGGACUGCCAGCUCUUAAGAAACAUUCCUGGUGCGGUGUCUGCAGUGCCCUUUGUGGGUGACUUCAGGCU`, “RBNS enrichment (R)” read 0.5.
For `GCUUUGUAUACAGGAGAUAAUACCACAUCAUCGGUUAUCUCCAAACUCCAGUCUUCUCUCAACUGCCCAGUUGUAUGUUGUCAUCAAUCACUUUUUCAAGGCUGGGUAGA`, “RBNS enrichment (R)” read 0.502.
`CAAUCACACAUUCUUCUCAGAAGAGAGGCAUAGAGCAUCCUGGGUUGCAAAGCCACAGAACAUUAUUGAACAUGUGAUGGGGCAGUGACAAACCUCUGCUGCUUCCCUCU` — result for “RBNS enrichment (R)”: 0.138.
`GUCAUCUGGUUUCAGUUCAGCAAGGGUACUUGAAUCAAUAUGGUAGCCCCAUCUGGACCAUCCACCCACAUCUGCUUGUCAAUCUGGCUGCAAACCUAAGCAGGCAGGUA`: “RBNS enrichment (R)” 0.387.
`ACAGAAGCAUCAAGGGAGCCCAGUCUAAACUCCUAGGGUUGGCCGCCCACUUGAUCCAGACCGUACUGAGUGUCAGAUGGAGAGGAUGCUUGGAAAGCUAGGAAGGCUGC` — result for “RBNS enrichment (R)”: 0.779.
`GUCUUUAAAGAGAAUUUUGGGGCUCAAUAAUUUAACAUAAUGUCAGUGUUAAAGCACUUAAUCCAAAUUAGCCCAUCUUUAACUGUUUUGAAAAAUCUAUAUUUAUUAAA` — result for “RBNS enrichment (R)”: 1.06.
`UUGGGUCUGUCGUCUCUCUCCGCCUAGCGACAGAUUCCUUCUAUUAAGGGAUUGGCUCGCUGAGUUCUAAGCUCUAAAUGGGUCAACUCCUUUGUUUUCCGCCUAGCGAC` — result for “RBNS enrichment (R)”: 0.186.
`UUUUUUUAUUUAAAAAAAGAUAUAUUAACAGUUUUAGAAGUCAGUAGAAUAAAAUCUUAAAGCACUCAUAAUAUGGCAUCCUUCAAUUUCUGUAUAAAAGCAGAUCUUUU` — result for “RBNS enrichment (R)”: 1.02.
Under “RBNS enrichment (R)”, `GAAUAUUUGCUUAAAAUUGCUAGUGAUUUCAUUACCAAGUUACUUGAAAAAAUGUUCUAUAUGCAUUUAAUUCUGAAAUCAGUCUACCAAGGGGCUGCUAGUAUAUGUCA` is recorded as 1.02.
`UUGUGAAGCUAUAGUACAUGUAGGCAUUUAGUUAAGUAUAGCAAUUCAAACUGACCUGCAUCCAUCCAAAACAAAUUCCUCCUUCAACCUUAUUUUUACUUGAAAUUUGC`: “RBNS enrichment (R)” 0.901.

Series 5
Target: Histone acetyltransferase KAT6A, winged helix 1, GST fusion (KAT6A, Homo sapiens, UniProt Q92794, residues 1-85)
Technique: protein binding microarray
Molecule type: double-stranded DNA, one strand shown
Matrix: in vitro
Concentration: not given
Setting: 8-mer, flanks averaged, mean of 2 arrays, mostly near background
Relative to: not given
Reading: higher = stronger binding
Construct (chain): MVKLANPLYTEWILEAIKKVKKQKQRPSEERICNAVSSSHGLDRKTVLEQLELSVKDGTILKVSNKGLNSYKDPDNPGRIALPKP
With `ATGCCTAC` the E-score was -0.266.
With `AGTACTTG` the E-score was -0.0368.
For `AGGATCCG`, the E-score was 0.175.
`AGTCTATA` gave an E-score of -0.0688.
The E-score of `ACCCGGGT` is reported as 0.355.
`CCAGGGTA` has an E-score of -0.0694.
With `CGAGACAC` the E-score was -0.0593.
For `CGTCCCTC`, the E-score was 0.071.
With `CCTGTAAC` the E-score was -0.153.
`GAGAGGCA` gave an E-score of -0.179.
With `ACATCATC` the E-score was -0.0351.
`ATACTTTG` has an E-score of -0.188.
For `AGAACCAG`, the E-score was -0.0942.
`GAAAAGAA` gave an E-score of -0.12.
`AAGACCCC` gave an E-score of -0.164.
The E-score of `GTGCATTA` is reported as -0.0322.
The E-score of `AAGACACA` is reported as -0.3.
`ACGTGACG` has an E-score of 0.0828.
For `CAGCCGCA`, the E-score was 0.0434.
